Measured values of several laboratories.
Each numbered part is a random draw from the data of one study; scales do not carry over between parts.

Series 1
Target: Interferon regulatory factor 7, full length, phosphomimetic (IRF7, Homo sapiens, UniProt Q92985, residues 1-503, S101K/S471D/S472D/S475D/S476D/S477D/S483D/S484D/S487D)
Technique: protein-binding microarray
Form: double-stranded DNA, one strand shown
Sample: in vitro
Tested at: 250 nM
Notes: 60-bp whole probe
Together with: salmon DNA 0.4 mg/ml
Baseline: random background probes
Direction: higher = stronger binding
All sequences stand within: GCCTAGCAC … GTCTTGATTCGCTTGACGCTGCTG
Target sequence (chain): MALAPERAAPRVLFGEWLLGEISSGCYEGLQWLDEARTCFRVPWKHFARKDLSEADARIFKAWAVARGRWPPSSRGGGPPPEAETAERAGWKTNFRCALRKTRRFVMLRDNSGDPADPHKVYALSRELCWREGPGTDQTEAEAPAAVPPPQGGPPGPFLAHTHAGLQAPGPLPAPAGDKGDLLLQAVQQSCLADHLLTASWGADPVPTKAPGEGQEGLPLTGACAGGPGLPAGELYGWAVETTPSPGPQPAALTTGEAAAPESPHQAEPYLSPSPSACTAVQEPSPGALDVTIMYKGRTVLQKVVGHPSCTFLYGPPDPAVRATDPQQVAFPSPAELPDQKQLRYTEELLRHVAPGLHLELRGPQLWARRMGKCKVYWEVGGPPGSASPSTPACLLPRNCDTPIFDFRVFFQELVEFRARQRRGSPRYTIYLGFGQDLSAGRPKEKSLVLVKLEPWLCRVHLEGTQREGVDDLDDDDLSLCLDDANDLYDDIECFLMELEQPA
Sequence | log fluorescence [z-score]
TTAGGTTTCCTTTCCCTTTTGTGCTAG | 5.04
GACGGTTTCTGTTCCGGGACGTGCTAG | 6.45
GAAGATGTCAAACTCACTCAGTGCTAG | -0.562
GACGGTATCCTTTTCCTGATGTGCTAG | 0.733
TCAACTTTCTGAATGCTACTGTGCTAG | 0.386
GACGAACTGGGGTATCGAGAGGTGCTA | -0.706
GACGGGCTCCTTTTCCTGACGTGCTAG | 0.795
TTTTTTTTCTACTTCTGTTTGTGCTAG | 1.91
GACGGTTTCCGTTTCCTGACGTGCTAG | 8.99
GACGGTTTCGATTTCGGGACGTGCTAG | 13.5
GACGCTTTCCTTTCCCTGACGTGCTAG | 1.97

Series 2
Target: Sal-like protein 4, full length isoform B (SALL4, Homo sapiens, UniProt Q9UJQ4-2, residues 1-616)
Technique: universal PBM
Form: double-stranded DNA, one strand shown
Sample: in vitro
Tested at: not given
Notes: 8-mer, flanks averaged, mean of replicates
Direction: higher = stronger binding
Residues (chain): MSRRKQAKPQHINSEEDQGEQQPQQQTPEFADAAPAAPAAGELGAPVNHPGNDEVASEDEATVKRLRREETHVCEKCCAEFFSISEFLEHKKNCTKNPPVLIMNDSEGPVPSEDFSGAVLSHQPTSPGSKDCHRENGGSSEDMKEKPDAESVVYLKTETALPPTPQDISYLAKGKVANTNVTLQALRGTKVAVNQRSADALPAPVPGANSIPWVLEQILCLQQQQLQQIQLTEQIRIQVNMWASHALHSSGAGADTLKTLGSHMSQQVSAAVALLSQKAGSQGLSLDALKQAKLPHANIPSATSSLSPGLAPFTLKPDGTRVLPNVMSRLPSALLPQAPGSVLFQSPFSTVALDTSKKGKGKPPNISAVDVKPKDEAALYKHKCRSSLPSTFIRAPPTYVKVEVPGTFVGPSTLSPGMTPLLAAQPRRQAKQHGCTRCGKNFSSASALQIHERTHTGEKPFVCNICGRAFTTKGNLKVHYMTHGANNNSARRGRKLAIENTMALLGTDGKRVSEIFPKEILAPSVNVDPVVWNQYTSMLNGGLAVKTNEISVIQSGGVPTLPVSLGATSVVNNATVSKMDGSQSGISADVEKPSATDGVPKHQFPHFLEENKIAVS
Sequence | E-score
GTTCCGTA | 0.0404
TAGGCGCA | -0.187
TTAGATAA | 0.254
CGCACCGC | -0.316
CAAAGAAC | 0.0857
CCGCACTC | -0.214
CTGCTATA | 0.102
ACTCAGCC | -0.259

Series 3
Target: Prothrombin, mature alpha-thrombin (F2, Homo sapiens, UniProt P00734)
Technique: aptamer microarray, sandwich
Form: DNA with 2'F-ANA
Sample: in vitro
Tested at: 200 nM
Notes: whole 15-mer aptamer, many near background
Together with: Cy3 exosite-II aptamer, 400 nM
Direction: higher = stronger binding
Sequence: GGTTGGTGTGGTTGG
Modification | mean fluorescence intensity [a.u.]
2'F-ANA at 1 2 3 4 5 7 8 10 12 13 14 | 50.7
2'F-ANA at 1 3 4 6 7 8 11 | 202
2'F-ANA at 1 2 4 8 9 13 14 | 50.8
2'F-ANA at 1 4 6 7 9 11 14 15 | 55.5
2'F-ANA at 3 4 5 6 8 10 12 14 15 | 53
2'F-ANA at 3 4 5 7 8 10 12 13 14 15 | 54.7
2'F-ANA at 2 5 6 8 10 11 12 13 15 | 47.4
2'F-ANA at 3 4 8 9 10 12 13 14 15 | 202
2'F-ANA at 4 5 8 10 13 15 | 48.2
2'F-ANA at 1 3 6 8 9 10 11 | 74.6

Single results of other studies
Substance | target | test | test system | conditions | scale | measurement | value
PhoQ, residues 284 288 289 292 302 303 AANNSF | PhoP, residues 12 14 15 18 19 QYFSL (Escherichia coli, UniProt P23836) | Sort-seq, measured: YFP reporter | E. coli | PhoQ-PhoP variant library, together with: 10 µM Mg2+ | baseline: high Mg2+ state, higher = stronger signaling | fold induction | 16.3

Excerpt of the above (series 2):
Sequence | E-score
TAGGCGCA | -0.187
GTTCCGTA | 0.0404
